Published values from different studies.
Protocols differ between the studies behind these lines. Numbers after ± are the reported error.
Technique: steady-state kinetics
B1: PduO (Limosilactobacillus reuteri, UniProt Q50EJ2); chain MKIYTKNGDKGQTRIIGKQILYKNDPRVAAYGEVDELNSWVGYTKSLINSHTQVLSNELEEIQQLLFDCGHDLATPADDERHSFKFKQEQPTVWLEEKIDNYTQVVPAVKKFILPGGTQLASALHVARTITRRAERQIVQLMREEQINQDVLIFINRLSDYFFAAARYANYLEQQPDMLYRNSKDVFR
B2: hflX K210A/N207A (Escherichia coli, UniProt P25519); chain MFDRYDAGEQAVLVHIYFTQDKDMEDLQEFESLVSSAGVEALQVITGSRKAPHPKYFVGEGKAVEIAEAVKATGASVVLFDHALSPAQERNLERLCECRVIDRTGLILDIFAQRARTHEGKLQVELAQLRHLATRLVRGWTHLERQKGGIGLRGPGETQLETDRRLLRNRIVQIQSRLERVEKQREQGRQSRIKADVPTVSLVGYTAAGASTLFNRITEARVYAADQLFATLDPTLRRIDVADVGETVLADTVGFIRHLPHDLVAAFKATLQETRQATLLLHVIDAADVRVQENIEAVNTVLEEIDAHEIPTLLVMNKIDMLEDFEPRIDRDEENKPNRVWLSAQTGAGIPQLFQALTERLSGEVAQHTLRLPPQEGRLRSRFYQLQAIEKEWMEEDGSVSLQVRMPIVDWRRLCKQEPALIDYLI
B3: TaNK (Thermoplasma acidophilum, UniProt Q9HJT3); chain MRFLAYFGHLNIDVLISVDSIPREGSVNVKDLRPRFGGTAGNFAIVAQKFRIPFDLYSAVGMKTHREYLAMIESMGINTGHVEKFEDESGPICYIATDGKKQVSFMHQGAMEKWKPQLADEYEYVHFSTGPNYLDMAKSIRSKIIFDPSQEIHKYSKDELKKFHEISYMSIFNDHEYRVFREMTGLSSPKVTTIVTNGERGSSLFMDGKKYDFPAIPSSGDTVGAGDSFRAGLYLALYNRRSIEKGMIYGTIIAHHVIDDGIENFSLNMEDLERETENYRRMFTKRS
B4: SUOX R529M/Y400N (Homo sapiens, UniProt P51687); chain ESTHIYTKEEVSSHTSPETGIWVTLGSEVFDVTEFVDLHPGGPSKLMLAAGGPLEPFWALYAVHNQSHVRELLAQYKIGELNPEDKVAPTVETSDPYADDPVRHPALKVNSQRPFNAEPPPELLTENYITPNPIFFTRNHLPVPNLDPDTYRLHVVGAPGGQSLSLSLDDLHNFPRYEITVTLQCAGNRRSEMTQVKEVKGLEWRTGAISTARWAGARLCDVLAQAGHQLCETEAHVCFEGLDSDPTGTAYGASIPLARAMDPEAEVLLAYEMNGQPLPRDHGFPVRVVVPGVVGARHVKWLGRVSVQPEESYSHWQRRDNKGFSPSVDWETVDFDSAPSIQELPVQSAITEPRDGETVESGEVTIKGYAWSGGGRAVIRVDVSLDGGLTWQVAKLDGEEQRPRKAWAWRLWQLKAPVPAGQKELNIVCKAVDDGYNVQPDTVAPIWNLMGVLSNAWHRVHVYVSP
B5: CstB (Staphylococcus aureus, UniProt G5ELA4); chain MFFKQFYDNHLSQASYLVGCQRTGEAIIIDPVRDLSKYIEVADSEGLTITQATETHIHADFASGIRDVAKRLNANIYVSGEGEDALGYKNMPSKTQFVKHGDIIQVGNVKLEVLHTPGHTPESISFLLTDLGGGSSVPMGLFSGDFIFVGDIGRPDLLEKSVQIKGSTEISAKQMYESVQNIKNLPDYVQIWPGHGAGSPCGKALGAIPISTIGYEKINNWAFNEIDETKFIESLTSNQPAPPHHFAQMKQVNQFGMNLYQSYDVYPSLDNKRVAFDLRSKEAFHGGHTKGTINIPYNKNFINQIGWYLDFEKDIDLIGDKSTVEKAKHTLQLIGFDKVAGYRLPKSGISTQSVHSADMTGKEEHVLDVRNDEEWNNGHLDQAVNIPHGKLLNENIPFNKEDKIYVHCQSGVRSSIAVGILESKGFENVVNIREGYQDFPESLK
B6: Tcur_2987 W376F (Thermomonospora curvata, UniProt D1A807); chain ACSEERAAGARPSATQTTGTATEPFHGPHQAGIATPPQAHAVFLGLDLRKGTGRKELGRLMRLLTDDARRLTQGRPALADPEPDLAPLPSRLTFTFGFGPGLFKAAGLEKQRPEGLRPLPPFKVDRLEDRWSGGDLLVQICCDDPITLAHALRMTVKDARAFTRVRWVQRGFRRSPGVQSSGATQRNLMGQLDGTVNPVPGTADFDQAVWVQDGPEWLRGGTTLVLRRIRMELEKWDEADPAGKEFAVGRRLTSGAPLTGRHEHDEPDFDAVDSAGFPVIAENAHIRLAHVDSPRLRMLRRPYNYDEGLTADGRSDAGLLFAAYQADIDRQFIPVQRRLDEGGDLLNLFTTPIGSAVFAIPPGCDENGWIGQGLLG
B7: enzyme K299V (Mus musculus, UniProt P08680); chain DRKSKIVQRAAPEVQEDVKTFKTDLLSTMDSTTRSHSFPSFQEPEQTEGAVPHLIQNNMTGSQAFGYDQFFRDKIMEKKQDHTYRVFKTVNRWANAYPFAQHFSEASMASKDVSVWCSNDYLGISRHPRVLQAIEETLKNHGAGAGGTRNISGTSKFHVELEQELAELHQKDSALLFSSCFVANDSTLFTLAKLLPGCEIYSDAGNHASMIQGIRNSGAAVFVFRHNDPGHLKKLLEKSDPKTPKIVAFETVHSMDGAICPLEELCDVAHQYGALTFVDEVHAVGLYGARGAGIGERDGIMHKLDIISGTLGKAFGCVGGYIASTRDLVDMVRSYAAGFIFTTSLPPMVLSGALESVRLLKGEEGQALRRAHQRNVKHMRQLLMDRGFPVIPCPSHIIPIRVGNAALNSKICDLLLSKHSIYVQAINYPTVPRGEELLRLAPSPHHSPQMMENFVEKLLLAWTEVGLPLQDVSVAACNFCHRPVHFELMSEWERSYFGNMGPQYVTTYA
B8: enzyme (Mortierella alpina, UniProt U5Y6A8); chain MAPPHVVDEQVRRRIVVEDEIQSKKQFERNYVPMDFTIKEIRDAIPAHLFIRDTTKSILHVVKDLVTIAIVFYCATFIETLPSLALRVPAWITYWIIQGTVMVGPWILAHECGHGAFSDSKTINTIFGWVLHSALLVPYQAWAMSHSKHHKGTGSMSKDVVFIPATRSYKGLPPLEKPAAEEEVLEQEHHHHEESIFAETPIYTLGALFFVLTLGWPLYLIMNFSGHEAPHWVNHFQTVAPLYEPHQRKNIFYSNCGIVAMGSILTYLSMVFSPLTVFMYYGIPYLGVNAWIVCITYLQHTDPKVPHFRDNEWNFQRGAACTIDRSFGTIVNHLHHHIGDSHQCHHMFSQMPFYNAVEATKHLKAKLGKYYIFDDTPIAKALYRNWRECKFVEDEGDVVFYKH
B9: asnB E349D (Escherichia coli, UniProt P22106); chain CSIFGVFDIKTDAVELRKKALELSRLMRHRGPDWSGIYASDNAILAHERLSIVDVNAGAQPLYNQQKTHVLAVNGEIYNHQALRAEYGDRYQFQTGSDCEVILALYQEKGPEFLDDLQGMFAFALYDSEKDAYLIGRDHLGIIPLYMGYDEHGQLYVASEMKALVPVCRTIKEFPAGSYLWSQDGEIRSYYHRDWFDYDAVKDNVTDKNELRQALEDSVKSHLMSDVPYGVLLSGGLDSSIISAITKKYAARRVEDQERSEAWWPQLHSFAVGLPGSPDLKAAQEVANHLGTVHHEIHFTVQEGLDAIRDVIYHIETYDVTTIRASTPMYLMSRKIKAMGIKMVLSGDGSDEVFGGYLYFHKAPNAKELHEETVRKLLALHMYDCARANKAMSAWGVEARVPFLDKKFLDVAMRINPQDKMCGNGKMEKHILRECFEAYLPASVAWRQKEQFSDGVGYSWIDTLKEVAAQQVSDQQLETARFRFPYNTPTSKEAYLYREIFEELFPLPSAAECVPGGPSVACSSAKAIEWDEAFKKMDDPSGRAVGVHQSAYK
UniProt P76044, sequence (whole entry, looked up): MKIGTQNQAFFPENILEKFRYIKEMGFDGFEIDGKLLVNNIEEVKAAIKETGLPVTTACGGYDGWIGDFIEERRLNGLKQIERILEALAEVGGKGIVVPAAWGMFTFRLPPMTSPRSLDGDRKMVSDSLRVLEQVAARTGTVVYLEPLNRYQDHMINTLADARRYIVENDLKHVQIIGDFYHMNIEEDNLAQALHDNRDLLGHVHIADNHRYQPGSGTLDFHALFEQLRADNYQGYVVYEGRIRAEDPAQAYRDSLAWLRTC
UniProt O48715, sequence (whole entry, looked up): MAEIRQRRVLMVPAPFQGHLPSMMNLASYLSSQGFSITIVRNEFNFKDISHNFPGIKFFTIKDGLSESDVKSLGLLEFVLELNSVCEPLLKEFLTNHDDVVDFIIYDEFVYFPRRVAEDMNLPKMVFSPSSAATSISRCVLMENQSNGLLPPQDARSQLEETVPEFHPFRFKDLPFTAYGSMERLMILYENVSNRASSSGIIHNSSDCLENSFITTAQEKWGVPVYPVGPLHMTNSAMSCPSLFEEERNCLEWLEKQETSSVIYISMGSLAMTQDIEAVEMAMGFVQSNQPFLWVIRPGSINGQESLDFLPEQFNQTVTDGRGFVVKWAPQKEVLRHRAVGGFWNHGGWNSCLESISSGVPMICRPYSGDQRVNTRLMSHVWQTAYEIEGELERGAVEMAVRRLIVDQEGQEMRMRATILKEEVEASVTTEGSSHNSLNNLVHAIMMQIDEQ
UniProt Q6WZB0, sequence (whole entry, looked up): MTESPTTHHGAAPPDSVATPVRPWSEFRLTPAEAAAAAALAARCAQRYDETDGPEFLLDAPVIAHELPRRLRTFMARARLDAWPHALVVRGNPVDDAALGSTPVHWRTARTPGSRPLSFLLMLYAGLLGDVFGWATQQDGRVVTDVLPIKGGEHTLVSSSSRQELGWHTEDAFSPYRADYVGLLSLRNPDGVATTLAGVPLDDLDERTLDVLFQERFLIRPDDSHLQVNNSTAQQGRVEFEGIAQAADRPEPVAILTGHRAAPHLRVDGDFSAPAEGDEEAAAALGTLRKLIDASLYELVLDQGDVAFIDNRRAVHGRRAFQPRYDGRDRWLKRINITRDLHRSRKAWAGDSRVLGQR
UniProt P07914, sequence (whole entry, looked up): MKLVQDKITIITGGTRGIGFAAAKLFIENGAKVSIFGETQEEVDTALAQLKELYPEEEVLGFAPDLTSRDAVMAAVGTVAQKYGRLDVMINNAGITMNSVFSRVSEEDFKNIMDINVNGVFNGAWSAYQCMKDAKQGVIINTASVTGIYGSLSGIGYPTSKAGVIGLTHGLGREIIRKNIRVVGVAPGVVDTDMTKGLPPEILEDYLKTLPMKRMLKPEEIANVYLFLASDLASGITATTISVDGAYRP
UniProt Q27593, sequence (whole entry, looked up): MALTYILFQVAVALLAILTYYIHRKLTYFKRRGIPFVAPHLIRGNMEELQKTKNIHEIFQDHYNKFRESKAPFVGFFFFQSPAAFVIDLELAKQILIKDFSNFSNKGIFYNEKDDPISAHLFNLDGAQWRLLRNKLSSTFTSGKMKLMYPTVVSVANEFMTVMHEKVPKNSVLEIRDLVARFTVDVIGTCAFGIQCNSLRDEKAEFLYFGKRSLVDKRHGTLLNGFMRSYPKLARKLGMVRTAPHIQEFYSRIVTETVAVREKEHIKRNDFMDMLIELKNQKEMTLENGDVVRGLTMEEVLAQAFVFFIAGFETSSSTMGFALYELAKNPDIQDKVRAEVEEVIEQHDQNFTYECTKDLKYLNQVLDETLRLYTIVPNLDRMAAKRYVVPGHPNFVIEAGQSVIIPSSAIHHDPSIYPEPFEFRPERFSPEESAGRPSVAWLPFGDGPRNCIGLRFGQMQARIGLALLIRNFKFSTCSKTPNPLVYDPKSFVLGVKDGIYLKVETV
UniProt Q9A9H3, sequence (whole entry, looked up): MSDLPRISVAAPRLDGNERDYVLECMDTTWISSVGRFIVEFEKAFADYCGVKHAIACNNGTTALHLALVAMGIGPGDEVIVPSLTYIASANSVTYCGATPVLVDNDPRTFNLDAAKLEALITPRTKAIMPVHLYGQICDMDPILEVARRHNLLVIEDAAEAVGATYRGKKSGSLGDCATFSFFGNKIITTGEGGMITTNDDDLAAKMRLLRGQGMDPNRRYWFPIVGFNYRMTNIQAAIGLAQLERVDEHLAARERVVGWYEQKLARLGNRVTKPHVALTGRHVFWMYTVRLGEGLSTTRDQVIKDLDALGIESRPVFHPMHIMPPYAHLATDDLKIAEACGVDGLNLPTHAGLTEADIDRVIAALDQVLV

B1 (PduO)
kcat/Km (Nc1ncnc2c1ncn2[C@@H]1O[C@H](COP(=O)(O)OP(=O)(O)OP(=O)(O)O)[C@@H](O)[C@H]1O; pH 8, 37 °C, anoxic, together with: cob(I)alamin): 12000 ± 1000 M⁻¹ s⁻¹

Ptb (Listeria monocytogenes, UniProt Q8Y7B7)
kcat/Km (CCCCC(=O)SCCNC(=O)CCNC(=O)[C@H](O)C(C)(C)COP(=O)(O)OP(=O)(O)OC[C@H]1O[C@@H](n2cnc3c(N)ncnc32)[C@H](O)[C@@H]1OP(=O)(O)O; pH 7.5, 25 °C, apparent): 4.2e+06 M⁻¹ s⁻¹

B2 (hflX K210A/N207A)
kcat/Km (Nc1nc2c(ncn2[C@@H]2O[C@H](COP(=O)(O)OP(=O)(O)OP(=O)(O)O)[C@@H](O)[C@H]2O)c(=O)[nH]1; pH 8, 37 °C, together with: MgCl2 5 mM, NaCl 200 mM): 3.67 M⁻¹ s⁻¹

B3 (TaNK)
kcat/Km (Nc1nc2c(ncn2[C@@H]2O[C@H](COP(=O)(O)OP(=O)(O)OP(=O)(O)O)[C@@H](O)[C@H]2O)c(=O)[nH]1; pH 8, 22 °C, apparent, together with: inosine, Mg2+): 1440 ± 84 M⁻¹ s⁻¹

protein (Shewanella denitrificans, UniProt Q12KT8)
kcat/Km (Cc1cn([C@H]2C[C@H](O)[C@@H](COP(=O)(O)OP(=O)(O)O[C@H]3O[C@H](C)[C@@H](O)[C@H](N)[C@H]3O)O2)c(=O)[nH]c1=O; pH 8.5, together with: acetyl-CoA 2 mM): 72000 M⁻¹ s⁻¹

B4 (SUOX R529M/Y400N)
kcat/Km (O=[N+]([O-])O; pH 7, 25 °C, together with: dithionite-reduced methyl viologen): 34000 M⁻¹ s⁻¹

enzyme (Arabidopsis thaliana, UniProt O48715)
kcat/Km (O=c1ccn([C@@H]2O[C@H](CO[P@@](=O)(O)O[P@@](=O)(O)O[C@H]3O[C@H](CO)[C@@H](O)[C@H](O)[C@H]3O)[C@@H](O)[C@H]2O)c(=O)[nH]1; pH 7.5, 25 °C): 185 M⁻¹ s⁻¹

B5 (CstB)
kcat/Km (CC(C)(COP(=O)(O)OP(=O)(O)OC[C@H]1O[C@@H](n2cnc3c(N)ncnc32)[C@H](O)[C@@H]1OP(=O)(O)O)[C@@H](O)C(=O)NCCC(=O)NCCSS; pH 6, 25 °C, NaBr 100 mM, air-saturated, together with: Fe(II), O2): 17500 ± 5100 M⁻¹ s⁻¹

B6 (Tcur_2987 W376F)
kcat/Km (Nc1c(S(=O)(=O)O)cc(Nc2cccc(S(=O)(=O)CCOS(=O)(=O)O)c2)c2c1C(=O)c1ccccc1C2=O; pH 3, sigmoidal kinetics, together with: H2O2 1 mM): 2.4e+06 M⁻¹ s⁻¹

ycjR (Escherichia coli, UniProt P76044)
kcat/Km (CO[C@@H]1O[C@H](CO)[C@@H](O)C(=O)[C@H]1O; pH 8, 30 °C, together with: MnCl2 0.5 mM, NADH 0.3 mM): 130 ± 30 M⁻¹ s⁻¹

CYP6A8 (Drosophila melanogaster, UniProt Q27593)
kcat/Km (CCCCCCCCCCCC(=O)O; DLPC; pH 7.4, 37 °C, total hydroxylation, together with: P450 reductase, NADPH): 63.3 ± 15 M⁻¹ s⁻¹

GDP-perosamine synthase (Caulobacter vibrioides, UniProt Q9A9H3)
kcat/Km (C[C@H]1O[C@H](OP(=O)(O)OP(=O)(O)OC[C@H]2O[C@@H](n3cnc4c(=O)[nH]c(N)nc43)[C@H](O)[C@@H]2O)[C@@H](O)[C@@H](O)C1=O; pH 7.5, room temperature, NaCl 110 mM, ping-pong fit, together with: L-glutamate cosubstrate; 100 µM PLP): 210000 ± 110000 M⁻¹ s⁻¹

BaiA1 (Clostridium scindens, UniProt P07914)
kcat/Km (C[C@H](CCC(=O)SCCNC(=O)CCNC(=O)[C@H](O)C(C)(C)COP(=O)(O)OP(=O)(O)OC[C@H]1O[C@@H](n2cnc3c(N)ncnc32)[C@H](O)[C@@H]1OP(=O)(O)O)[C@H]1CC[C@H]2[C@@H]3CC[C@@H]4CC(=O)CC[C@]4(C)[C@H]3CC[C@]12C; pH 8.7, 37 °C, together with: NADH): 84300 M⁻¹ s⁻¹

B7 (enzyme K299V)
kcat/Km (CC(C)(COP(=O)(O)OP(=O)(O)OC[C@H]1O[C@@H](n2cnc3c(N)ncnc32)[C@H](O)[C@@H]1OP(=O)(O)O)[C@@H](O)C(=O)NCCC(=O)NCCSC(=O)CCC(=O)O; pH 7.5, 37 °C): 7000 ± 700 M⁻¹ s⁻¹

B8 (enzyme)
kcat/Km (CCCCC/C=C\C/C=C\C/C=C\C/C=C\CCCC(=O)SCCNC(=O)CCNC(=O)[C@H](O)C(C)(C)COP(=O)(O)OP(=O)(O)OC[C@H]1O[C@@H](n2cnc3c(N)ncnc32)[C@H](O)[C@@H]1OP(=O)(O)O; pH 7.5, 28 °C): 333 M⁻¹ s⁻¹

vioC (Streptomyces vinaceus, UniProt Q6WZB0)
kcat/Km (N=C(N)NOCC[C@H](N)C(=O)O; pH 8, 30 °C, together with: alpha-ketoglutarate 1.0 mM): 1060 ± 283 M⁻¹ s⁻¹

B9 (asnB E349D)
kcat/Km (NC(=O)CC[C@H](N)C(=O)O; pH 8, 37 °C, 100 mM NaCl, glutaminase site, together with: MgCl2; no ATP): 1510 M⁻¹ s⁻¹

For quick reference, copied from above:
B7 (enzyme K299V)
kcat/Km (CC(C)(COP(=O)(O)OP(=O)(O)OC[C@H]1O[C@@H](n2cnc3c(N)ncnc32)[C@H](O)[C@@H]1OP(=O)(O)O)[C@@H](O)C(=O)NCCC(=O)NCCSC(=O)CCC(=O)O; pH 7.5, 37 °C): 7000 ± 700 M⁻¹ s⁻¹

B8 (enzyme)
kcat/Km (CCCCC/C=C\C/C=C\C/C=C\C/C=C\CCCC(=O)SCCNC(=O)CCNC(=O)[C@H](O)C(C)(C)COP(=O)(O)OP(=O)(O)OC[C@H]1O[C@@H](n2cnc3c(N)ncnc32)[C@H](O)[C@@H]1OP(=O)(O)O; pH 7.5, 28 °C): 333 M⁻¹ s⁻¹
